# Published values pooled from the literature.
# Numbered parts are unrelated; each lists some results of a single study.

# Series 1
# Target: PABPC1L2, full length, GST fusion (mouse, UniProt A0ABA7IW68)
# Method: RNAcompete
# Molecule type: RNA
# Matrix: in vitro
# Tested at: 20 nM
# Setting: 7-mer, probes averaged, single round
# Baseline: mean of 7-mers
# Direction: higher = stronger binding
# Target sequence (chain): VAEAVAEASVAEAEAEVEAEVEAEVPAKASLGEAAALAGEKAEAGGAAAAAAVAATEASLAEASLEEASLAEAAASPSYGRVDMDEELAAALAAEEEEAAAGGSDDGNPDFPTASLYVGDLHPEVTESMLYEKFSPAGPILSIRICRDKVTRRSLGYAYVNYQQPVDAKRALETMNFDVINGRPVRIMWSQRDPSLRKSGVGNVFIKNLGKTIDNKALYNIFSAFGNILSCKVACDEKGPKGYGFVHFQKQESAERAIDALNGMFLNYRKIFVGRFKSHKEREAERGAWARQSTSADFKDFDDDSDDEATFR
Strand,7-mer Z-score
CACUAGC,-0.206
GGGUGCC,0.017
GGUUCUC,-0.36
UAAUUUC,-0.378
GGCAAGU,0.037
GGCGAGU,0.0315
AGAGGGC,0.253
AACCAGU,-0.0609

# Series 2
# Target: Replicase polyprotein 1ab, main protease (rep, Severe acute respiratory syndrome coronavirus 2, UniProt P0DTD1)
# Effect on: enzyme activity
# Mode: inhibitor
# Tested at: 20 µM
# Setting: hit confirmation, with DTT
SMILES,inhibition
CC[C@]12C=CCN3CC[C@@]4(c5cc([C@@]6(C(=O)OC)C[C@@H]7C[C@@H](C(C)(F)F)C[N@](CCc8c6[nH]c6ccccc86)C7)c(OC)cc5N(C)[C@H]4[C@@](O)(C(=O)OC)[C@@H]1OC(C)=O)[C@@H]32,-14.4%
Oc1c(I)cc(I)c(O)c1I,-18.8%
CCc1ccc(/C=C/C(=O)Nc2ccc(C(C)=O)cc2)o1,-30.5%
O=C1OC2(c3ccccc31)c1cc(Br)c(O)c(Br)c1Oc1c2cc(Br)c(O)c1Br,21.3%

# Series 3
# Cell line: HEK-293T
# Effect on: pseudovirus infection
# Method: FDA-approved drug library screen
# Organism: VSV pseudotyped with SARS-CoV-2 spike
# Tested at: 10 µM
# Time: 16 h
# Baseline: vehicle-treated
SMILES,GFP-positive cells [%]
COc1ccc(-c2ccc3cc(C(=O)O)ccc3c2)cc1C12CC3CC(CC(C3)C1)C2,83
CCOC(=O)CC(SP(=S)(OC)OC)C(=O)OCC (centres unmarked),122
CC(=O)OCC(=O)[C@@]12OC3(CCCC3)O[C@@H]1C[C@H]1[C@@H]3CCC4=CC(=O)C=C[C@]4(C)[C@@]3(F)[C@@H](O)C[C@@]12C,96.9
COc1cc([C@@H]2c3cc4c(cc3[C@@H](O[C@@H]3O[C@@H]5CO[C@@H](c6cccs6)O[C@H]5[C@H](O)[C@H]3O)[C@H]3COC(=O)[C@H]23)OCO4)cc(OC)c1O,64.3
Nc1nc2c(c(=O)[nH]1)N(C=O)C(CNc1ccc(C(=O)N[C@@H](CCC(=O)O)C(=O)O)cc1)CN2 (some centres unmarked),99.9

# Series 4
# Target: Replicase polyprotein 1ab, nsp13 helicase (rep, Severe acute respiratory syndrome coronavirus 2, UniProt P0DTD1)
# Mode: inhibitor
# Tested at: 20 µM
Structure (SMILES),inhibition
O=C(O)CCNC(=O)c1ccccc1,3.48%
CC(C)(O)c1coc(S(=O)(=O)NC(=O)Nc2c3c(cc4c2CCC4)CCC3)c1,0.15%
CC1=NC[C@H](O)[C@@H](C(=O)O)N1,-2.96%
COc1ccc(CCN(C)CCCOc2ccc(S(=O)(=O)c3c(C(C)C)c4ccccc4n3C)cc2)cc1OC,3.42%
CCOc1cc(N2CCC(O)CC2)ccc1Nc1ncc2c(n1)N(C)c1ccccc1C(=O)N2C,9.45%
O=c1[nH]c(=O)n([C@H]2C[C@H](O)[C@@H](CO)O2)cc1C(F)(F)F,-1.05%
C=CCNC1=C2C[C@@H](C)C[C@H](OC)[C@H](O)[C@@H](C)/C=C(\C)[C@H](OC(N)=O)[C@@H](OC)/C=C\C=C(/C)C(=O)NC(=CC1=O)C2=O,7.99%
Cc1cnc(-c2cc(N3CCN(C(=O)CCS(C)(=O)=O)CC3)ncc2Cl)c(C)c1,3.84%
COc1cccc(/C=N/N=C/c2cccc(OC)c2)c1,1.96%
CC(C)[N+](C)(CCOC(=O)C1c2ccccc2Oc2ccccc21)C(C)C,3.83%
O=C(c1ccc(C(=O)N2CCC(N3CCCC3)CC2)c(Nc2ccccc2)c1)N1CCC(N2CCCC2)CC1,9.27%
Cc1cnc(Nc2ccc(N3CCN(C)CC3)cc2)nc1Nc1cccc(S(=O)(=O)NC(C)(C)C)c1,27.8%
CN(C)c1cccc(Oc2cnc(Nc3cccc(O)c3)nc2)c1,1.63%
Cc1cnc(Nc2ccc(OCCN3CCCC3)cc2)nc1Nc1cccc(S(=O)(=O)NC(C)(C)C)c1,13%
O=C(NCC(=O)N1CC[C@H](N[C@H]2CC[C@@](O)(c3ccc(-c4ncccn4)cn3)CC2)C1)c1cccc(C(F)(F)F)c1,-0.75%
Cc1nnc(-c2ccc3occ(-c4ccc([S+](C)[O-])cc4)c3c2)o1 (centres unmarked),3.22%
CCCC[C@H](C)C[C@H](O)/C=C/[C@H]1[C@H](O)CC(=O)[C@@H]1CCCC/C=C/C(=O)O,0.08%
CC(=O)NCCNc1cc(Cl)nn2c(-c3cccc(S(=O)(=O)N(C)C)c3)c(C)nc12,9.09%
COc1cc2c(N3CCN(C(=O)Nc4ccc(OC(C)C)cc4)CC3)ncnc2cc1OCCCN1CCCCC1,5.7%
O/N=C/c1ccc(-c2ccc(O)c(F)c2)c(Cl)c1O,-1.34%
O=C(Nc1ccccc1)Nc1ccc(-c2ccc(C(=O)[C@@H]3CCC[C@H]3C(=O)O)cc2)cc1,8.73%
COc1ccc(C(=O)CC2(O)C(=O)Nc3c(Cl)ccc(Cl)c32)cc1 (centres unmarked),3.62%
O=C1CCCN1CC#CCN1CCCC1,5.78%
CCCCCCCCCCCCc1ccc(S(=O)(=O)Nc2nncs2)cc1,5.79%
c1coc(-c2nnc3sc(C4CCCCC4)nn23)c1,-0.34%

# Series 5
# Target: Interferon regulatory factor 5, full length, phosphomimetic (IRF5, Homo sapiens, UniProt Q13568-2, residues 1-514, K96S/S451D/S453D/S456D/S462D)
# Method: protein-binding microarray
# Molecule type: double-stranded DNA, one strand shown
# Matrix: in vitro
# Tested at: 250 nM
# Setting: 60-bp whole probe
# Together with: salmon DNA 0.4 mg/ml
# Baseline: random background probes
# Direction: higher = stronger binding
# Constant ends, left off below: GCCTAGCAC … GTCTTGATTCGCTTGACGCTGCTG
Strand,log fluorescence
TTAGATCTTAGTATCGATTAGTGCTAG,6.76 z-score
TTAGGTCTCCTTTTCCTTAAGTGCTAG,0.251 z-score
GACGATGTCAGTATCGAGACGTGCTAG,1.78 z-score
TTAGAGCTGGGGTATCGATTAGTGCTA,1.48 z-score
TTAGGTTTCGGACGGGGTTAGTGCTAG,4.73 z-score
TCAAGTTTTCCTATGTCACTGTGCTAG,1.01 z-score
GACGGTTTCCTTGTCCTGACGTGCTAG,0.369 z-score
TCATATGTACTCTCTCCAACTGTGCTA,0.334 z-score

# Repeated from above (series 4):
Structure (SMILES),inhibition
COc1cccc(/C=N/N=C/c2cccc(OC)c2)c1,1.96%
c1coc(-c2nnc3sc(C4CCCCC4)nn23)c1,-0.34%
CC(C)(O)c1coc(S(=O)(=O)NC(=O)Nc2c3c(cc4c2CCC4)CCC3)c1,0.15%
CCCCCCCCCCCCc1ccc(S(=O)(=O)Nc2nncs2)cc1,5.79%
